Measurements collected from several papers.
± gives the spread as reported.

Compound	cell line	assay	test system	conditions	CC50
CCOc1cccc(NC(=O)CSc2cn(C(=O)OC(C)(C)C)c3ccccc23)c1	HEK293T	cell viability, CCK-8	–	24 h	> 100 µM
CC[C@H](C)[C@@H]1NC(=O)[C@H](CCCCN)NC(=O)[C@H](CCCCN)NC(=O)[C@H](Cc2ccc(O)cc2)NC(=O)[C@H](CC(C)C)NC(=O)[C@@H]2CCCN2C(=O)[C@H](C)NC(=O)CNC(=O)CNC(=O)[C@H](CO)NC(=O)CNC(=O)CNC(=O)[C@H](CO)NC(=O)[C@H](CCC(=O)O)NC(=O)[C@H](CC(C)C)NC(=O)[C@H](CC(C)C)NC(=O)[C@H](CCCCN)NC(=O)[C@H](CCCCN)NC(=O)[C@H]([C@@H](C)CC)NC(=O)[C@H]([C@@H](C)CC)NC(=O)[C@H](CCCCN)NC(=O)[C@H](CCCCN)NC(=O)[C@H](Cc2ccc(O)cc2)NC(=O)[C@H](CC(C)C)NC(=O)[C@@H]2CCCN2C(=O)CNC(=O)CNC(=O)CSC[C@@H](C(N)=O)NC(=O)[C@H](CC(C)C)NC(=O)[C@H](CCCCN)NC(=O)[C@H](CCCCN)NC(=O)[C@H]([C@@H](C)CC)NC1=O	human PBMC	cell viability, resazurin	–	24 h	5.1 ± 0.6 µM
Cc1cc(C(NC(=O)C2CC2c2ccc(C)c(C)c2)C(N)=O)cc(C(F)(F)F)c1 (mixture of isomers)	BHK-21	cell growth or viability, MTT	–	24 h	> 100 µM
CCCCCCC(=O)CCCCCC/C=C/C[C@@H](O)[C@H](O)[C@@](N)(CO)C(=O)O	VeroE6/TMPRSS2	cell growth or viability	–	72 h	> 20 µM
Cc1cc(C)cc([C@@H]2C[C@H]2C(=O)N[C@H](C(=O)NCc2ccccc2)c2ccc(C)c(C)c2)c1	BHK-21	cell growth or viability, MTT	–	24 h	> 100 µM
CCN(CC)CCCC(C)Nc1cc[n+]([Ru-]2[NH2+]CC[NH2+]2)c2cc(Cl)ccc12.Cc1ccc(C(C)C)cc1.F[P-](F)(F)(F)(F)F.F[P-](F)(F)(F)(F)F (centres unmarked)	Jurkat	PI flow cytometry	–	20 h	86 µM
CC[C@H](C)[C@H](NC(=O)[C@H](CCCNC(=N)N)NC(=O)[C@H](C)NC(=O)[C@H](Cc1cnc[nH]1)NC(=O)[C@@H](NC(=O)[C@H](Cc1ccccc1)NC(=O)[C@H](CC(C)C)NC(=O)[C@H](CC(C)C)NC(=O)[C@H](CCC(N)=O)NC(=O)[C@H](CCC(N)=O)NC(=O)[C@H](CC(C)C)NC(C)=O)[C@@H](C)CC)C(=O)NCC(=O)N[C@@H](CCCNC(=N)N)C(=O)N[C@@H](CCCNC(=N)N)C(=O)N[C@@H](CCCNC(=N)N)C(=O)N[C@@H](CCCNC(=N)N)C(=O)N[C@@H](CCCNC(=N)N)C(=O)N[C@@H](CCCNC(=N)N)C(=O)N[C@@H](CCCNC(=N)N)C(=O)N[C@@H](CCCNC(=N)N)C(N)=O	MT4 Luc	luciferase signal decrease	–	–	10 µM
CC[C@H](C)[C@@H]1NC(=O)[C@H](CCCCN)NC(=O)[C@H](CCCCN)NC(=O)[C@H](Cc2ccc(O)cc2)NC(=O)[C@H](CC(C)C)NC(=O)[C@@H]2CCCN2C(=O)[C@H](C)NC(=O)CNC(=O)CNC(=O)[C@H](CO)NC(=O)CNC(=O)CNC(=O)[C@H](CO)NC(=O)[C@H]([C@@H](C)O)NC(=O)[C@H](CC(C)C)NC(=O)[C@H](CC(C)C)NC(=O)[C@H](C)NC(=O)[C@H](Cc2c[nH]c3ccccc23)NC(=O)[C@H](Cc2ccc(O)cc2)NC(=O)[C@H](Cc2c[nH]cn2)NC(=O)[C@H](CCC(=O)O)NC(=O)[C@H](Cc2ccccc2)NC(=O)[C@H]([C@@H](C)O)NC(=O)[C@H](CC(C)C)NC(=O)[C@@H]2CCCN2C(=O)CNC(=O)CNC(=O)CSC[C@@H](C(N)=O)NC(=O)[C@H](CC(C)C)NC(=O)[C@H](CCCCN)NC(=O)[C@H](CCCCN)NC(=O)[C@H]([C@@H](C)CC)NC1=O	human PBMC	cell viability, resazurin	–	24 h	20.5 ± 0.8 µM
O=C1CC(c2ccccc2)Oc2cc(O[C@@H]3O[C@H](CO)[C@@H](O)[C@H](O)[C@H]3O)ccc21 (some centres unmarked)	Vero E6-GFP	cell viability	–	72 h, added: CP-100356 2 µM	> 100 µM
C=C1C(=O)O[C@@H]2C[C@H](C)[C@@H]3C[C@H](O[Si](C)(C)C)[C@H](O[Si](C)(C)C)[C@@]3(C)C[C@H]12	mouse Splenocyte	cell growth or viability, flow cytometry	BALB/c	48 h	66.4 µM
O=C(CCN(CCC(=O)N[C@@H](Cc1c[nH]c2ccccc12)C(=O)O)C(=O)CCN(CCC(=O)N(CCC(=O)N[C@@H](Cc1c[nH]c2ccccc12)C(=O)O)CCC(=O)N[C@@H](Cc1c[nH]c2ccccc12)C(=O)O)C(=O)[C@H]1C[C@@H](C(=O)N(CCC(=O)N(CCC(=O)N[C@@H](Cc2c[nH]c3ccccc23)C(=O)O)CCC(=O)N[C@@H](Cc2c[nH]c3ccccc23)C(=O)O)CCC(=O)N(CCC(=O)N[C@@H](Cc2c[nH]c3ccccc23)C(=O)O)CCC(=O)N[C@@H](Cc2c[nH]c3ccccc23)C(=O)O)C[C@@H](C(=O)N(CCC(=O)N(CCC(=O)N[C@@H](Cc2c[nH]c3ccccc23)C(=O)O)CCC(=O)N[C@@H](Cc2c[nH]c3ccccc23)C(=O)O)CCC(=O)N(CCC(=O)N[C@@H](Cc2c[nH]c3ccccc23)C(=O)O)CCC(=O)N[C@@H](Cc2c[nH]c3ccccc23)C(=O)O)C1)N[C@@H](Cc1c[nH]c2ccccc12)C(=O)O	RD	–	–	–	> 27 µM
C=C(C)[C@@H]1CC[C@]2(C(=O)NC(CO)Cc3ccccc3)CC[C@]3(C)[C@H](CC[C@@H]4[C@@]5(C)CCCNC(C)(C)[C@@H]5CC[C@]43C)[C@@H]12 (some centres unmarked)	primary HFF	cell viability, CellTiter-Glo	–	HSV-1 assay setting	3.22 µM
COc1cc(O)c2c(c1)/C=C/C[C@H](O)[C@H](O)C(=O)/C=C\C[C@H](C)OC2=O	Calu-3, infected	alamarBlue	–	24 h post infection	> 20 µM
CC(=O)CCC1C(=O)NC(C(C)C)C(=O)NC(Cc2cccc(O)c2)C(=O)N2CCCC(N2)C(=O)OC(C(C)=CC=CC(=O)N2CCCCO2)CC=CC=CC(O)C(C)C1O (centres unmarked)	Huh-5-2	MTS	–	3 days	> 100 µM
CC(C)C[C@@H]1NC(=O)[C@@H](Cc2c[nH]c3ccccc23)NC(=O)[C@H](CCCCN)NC(=O)[C@@H](Cc2c[nH]cn2)NC(=O)[C@H](CO)NC(=O)[C@@H](Cc2c[nH]cn2)NC(=O)[C@H](CCCCN)NC(=O)[C@@H](Cc2c[nH]c3ccccc23)NC1=O	SK-OV-3	cytotoxicity	–	–	8.5 µM
C=C1C(=O)O[C@@H]2C[C@H](C)[C@@H]3C[C@H](O[Si](c4ccccc4)(c4ccccc4)C(C)(C)C)[C@H](O)[C@@]3(C)C[C@H]12	mouse Splenocyte	cell growth or viability, flow cytometry	BALB/c	48 h	143 µM
CC[C@H](C)[C@H](NC(=O)[C@H](CCCNC(=N)N)NC(=O)[C@H](Cc1ccccc1)NC(=O)[C@H](C)NC(=O)[C@@H](NC(=O)[C@H](Cc1ccccc1)NC(=O)[C@H](CC(C)C)NC(=O)[C@H](CC(C)C)NC(=O)[C@H](CCC(N)=O)NC(=O)[C@H](CCC(N)=O)NC(=O)[C@H](CC(C)C)NC(C)=O)[C@@H](C)CC)C(=O)NCC(=O)N[C@@H](CCCNC(=N)N)C(=O)N[C@@H](CCCNC(=N)N)C(=O)N[C@@H](CCCNC(=N)N)C(=O)N[C@@H](CCCNC(=N)N)C(=O)N[C@@H](CCCNC(=N)N)C(=O)N[C@@H](CCCNC(=N)N)C(=O)N[C@@H](CCCNC(=N)N)C(=O)N[C@@H](CCCNC(=N)N)C(N)=O	MT4 Luc	luciferase signal decrease	–	–	> 5 µM
O=C(CCN(CCC(=O)NC(Cc1c[nH]c2ccccc12)C(=O)O)C(=O)CCC(CCC(=O)N(CCC(=O)NC(Cc1c[nH]c2ccccc12)C(=O)O)CCC(=O)NC(Cc1c[nH]c2ccccc12)C(=O)O)(CCC(=O)N(CCC(=O)NC(Cc1c[nH]c2ccccc12)C(=O)O)CCC(=O)NC(Cc1c[nH]c2ccccc12)C(=O)O)[N+](=O)[O-])NC(Cc1c[nH]c2ccccc12)C(=O)O (centres unmarked)	RD	–	–	3 (unit not given)	> 82 µM
CCC(C)SSc1ncc[nH]1 (centres unmarked)	RD	–	–	3 (unit not given), 37 °C	7.1 µM
C=C(C)[C@@H]1CC[C@]2(CO)CC[C@]3(C)[C@H](CC[C@@H]4[C@@]5(C)CCCNC(C)(C)[C@@H]5CC[C@]43C)[C@@H]12	C-33 A	cell viability, CellTiter-Glo	–	–	11.9 µM
C1=[N+]2CCCC[N+]3=Cc4ccc5[n]4[Au-]23[n]2c1ccc2-c1nc2ccccc2nc1-5.F[P-](F)(F)(F)(F)F	NCI60 non-small cell lung lines	–	–	–	97 µM
O=C(CCN(CCC(=O)N[C@@H](Cc1c[nH]c2ccccc12)C(=O)O)C(=O)CCN(CCC(=O)N(CCC(=O)N[C@@H](Cc1c[nH]c2ccccc12)C(=O)O)CCC(=O)N[C@@H](Cc1c[nH]c2ccccc12)C(=O)O)C(=O)c1cc(C(=O)N(CCC(=O)N(CCC(=O)N[C@@H](Cc2c[nH]c3ccccc23)C(=O)O)CCC(=O)N[C@@H](Cc2c[nH]c3ccccc23)C(=O)O)CCC(=O)N(CCC(=O)N[C@@H](Cc2c[nH]c3ccccc23)C(=O)O)CCC(=O)N[C@@H](Cc2c[nH]c3ccccc23)C(=O)O)cc(C(=O)N(CCC(=O)N(CCC(=O)N[C@@H](Cc2c[nH]c3ccccc23)C(=O)O)CCC(=O)N[C@@H](Cc2c[nH]c3ccccc23)C(=O)O)CCC(=O)N(CCC(=O)N[C@@H](Cc2c[nH]c3ccccc23)C(=O)O)CCC(=O)N[C@@H](Cc2c[nH]c3ccccc23)C(=O)O)c1)N[C@@H](Cc1c[nH]c2ccccc12)C(=O)O	RD	–	–	–	> 27 µM
Cc1cccc(NC(=O)CSc2c[nH]c3ccccc23)c1	HEK293T	cell viability, CCK-8	–	24 h	93.5 µM
O=C(CCN(CCC(=O)N[C@@H](Cc1c[nH]c2ccccc12)C(=O)O)C(=O)CCN(CCC(=O)N(CCC(=O)N[C@@H](Cc1c[nH]c2ccccc12)C(=O)O)CCC(=O)N[C@@H](Cc1c[nH]c2ccccc12)C(=O)O)C(=O)CCC(CCC(=O)N(CCC(=O)N(CCC(=O)N[C@@H](Cc1c[nH]c2ccccc12)C(=O)O)CCC(=O)N[C@@H](Cc1c[nH]c2ccccc12)C(=O)O)CCC(=O)N(CCC(=O)N[C@@H](Cc1c[nH]c2ccccc12)C(=O)O)CCC(=O)N[C@@H](Cc1c[nH]c2ccccc12)C(=O)O)(CCC(=O)N(CCC(=O)N(CCC(=O)N[C@@H](Cc1c[nH]c2ccccc12)C(=O)O)CCC(=O)N[C@@H](Cc1c[nH]c2ccccc12)C(=O)O)CCC(=O)N(CCC(=O)N[C@@H](Cc1c[nH]c2ccccc12)C(=O)O)CCC(=O)N[C@@H](Cc1c[nH]c2ccccc12)C(=O)O)[N+](=O)[O-])N[C@@H](Cc1c[nH]c2ccccc12)C(=O)O	RD	–	–	–	> 26 µM
CC(C)C[C@@H]1NC(=O)[C@@H](Cc2c[nH]c3ccccc23)NC(=O)[C@H](CCCN)NC(=O)[C@@H](CO)NC(=O)[C@H](CCC(N)=O)NC(=O)[C@@H](CCC(=O)O)NC(=O)[C@H](CO)NC(=O)[C@@H](Cc2c[nH]c3ccccc23)NC1=O	SK-OV-3	cytotoxicity	–	–	> 40 µM
CC(C)C[C@H](NC(=O)OCc1ccccc1)C(=O)N[C@@H](C[C@@H]1CCNC1=O)C(O)S(=O)(=O)O (some centres unmarked)	RD	–	–	3 (unit not given), 33 °C, added: MgCl2 30 mM	> 50 µM

Excerpt of the above:
Compound	cell line	assay	test system	conditions	CC50
CCOc1cccc(NC(=O)CSc2cn(C(=O)OC(C)(C)C)c3ccccc23)c1	HEK293T	cell viability, CCK-8	–	24 h	> 100 µM
CC[C@H](C)[C@@H]1NC(=O)[C@H](CCCCN)NC(=O)[C@H](CCCCN)NC(=O)[C@H](Cc2ccc(O)cc2)NC(=O)[C@H](CC(C)C)NC(=O)[C@@H]2CCCN2C(=O)[C@H](C)NC(=O)CNC(=O)CNC(=O)[C@H](CO)NC(=O)CNC(=O)CNC(=O)[C@H](CO)NC(=O)[C@H](CCC(=O)O)NC(=O)[C@H](CC(C)C)NC(=O)[C@H](CC(C)C)NC(=O)[C@H](CCCCN)NC(=O)[C@H](CCCCN)NC(=O)[C@H]([C@@H](C)CC)NC(=O)[C@H]([C@@H](C)CC)NC(=O)[C@H](CCCCN)NC(=O)[C@H](CCCCN)NC(=O)[C@H](Cc2ccc(O)cc2)NC(=O)[C@H](CC(C)C)NC(=O)[C@@H]2CCCN2C(=O)CNC(=O)CNC(=O)CSC[C@@H](C(N)=O)NC(=O)[C@H](CC(C)C)NC(=O)[C@H](CCCCN)NC(=O)[C@H](CCCCN)NC(=O)[C@H]([C@@H](C)CC)NC1=O	human PBMC	cell viability, resazurin	–	24 h	5.1 ± 0.6 µM
Cc1cc(C(NC(=O)C2CC2c2ccc(C)c(C)c2)C(N)=O)cc(C(F)(F)F)c1 (mixture of isomers)	BHK-21	cell growth or viability, MTT	–	24 h	> 100 µM
